Results of several laboratories.
Protocols differ between the studies behind these lines.
Target: Wee1-like protein kinase (WEE1, Homo sapiens, UniProt P30291)

SMILES | assay | system | setting | scale | endpoint | value
COc1c(Cl)cccc1Nc1c(-c2ccncc2C#C[C@@]2(C)CCCN2C(=O)/C=C/CN(C)C)[nH]c2c1C(=O)NCC2 | binding, competition with immobilised ligand | – | 3 µM | – | remaining binding | 100%
COc1cc(Nc2nc(C)cc(-c3cnn4nc(OC)ccc34)n2)cc(C(F)(F)F)c1 | binding, competition with immobilised ligand | – | 1 µM | – | remaining binding | 95%
Cc1ccc(C(=O)Nc2ccc(CN3CCN(C)CC3)c(C(F)(F)F)c2)cc1C#Cc1cnc2cccnn12 | target engagement, NanoBRET | human cells | – | – | upper asymptote | 3.2
CCn1cc(C(=O)O)c(=O)c2c(N)c(F)c(NC3CCCCC3)cc21 | kinase activity | – | 0.1 µM, together with: ATP at Km | – | inhibition | -0.2%
C=CC(=O)Nc1cc(-c2nn(C3CCN(CCNC(=O)[C@H](C)CCC45CC6CC(CC(C6)C4)C5)CC3)c3ncnc(N)c23)ccc1Oc1ccccc1 | inhibitor, KiNativ profiling | biochemical | 2 µM | – | inhibition | -12.9%
Cc1cnc2nc1Nc1cccc(c1)COC/C=C/COCc1cc(ccc1OCCN1CCOCC1)N2 | binding, competition with immobilised ligand | – | 0.1 µM | – | remaining binding | 97%
CN1CC[C@@H](COc2cnc(C#N)cc2-c2ccn3nc(NC(=O)C4CC4)cc3c2)C1 | enzyme activity, inhibitor | – | 1 µM | – | inhibition | 2%
Nc1ncc2c(n1)-c1c([nH]c3ccc(C4=CCOCC4)cc13)CCC2 | binding, competition with immobilised ligand | – | 1 µM | – | remaining binding | 83%
NC(=O)[C@@H](O)C[C@H]1CCc2sc3ncnc(O[C@H]4CC[C@H](N5CCOCC5)CC4)c3c21 | enzyme activity, inhibitor | – | 10 µM | – | inhibition | 4%
CNC(=O)C[C@H](Cc1ccc(C#N)cc1)NC(=O)c1cc(-c2ccc(CN[C@H](C)c3ccc(C)cc3)o2)ccc1Cl | enzyme activity, inhibitor | – | 1 µM | – | activity vs control | 106%
Nc1ncc(-c2cc(-c3cnn(CC(F)(F)F)c3)ncc2F)nc1C(=O)NC1CNCC(F)C1 (stereo not drawn) | enzyme activity | – | 1 µM | relative to: DMSO control | remaining activity | 101%
O=C(Cc1ccc(OCc2ccccc2)cc1)NC1(C(=O)O)CCN(C(=O)c2ccc(-c3cccc(Cl)c3)cc2)CC1 | enzyme activity, inhibitor | – | 10 µM | – | activity vs control | 102%
CCN1CCN(Cc2ccc(NC(=O)c3ccc(C)c(NC(=O)c4cncc(-c5cnn(C)c5)c4)c3)cc2C(F)(F)F)CC1 | binding, competition with immobilised ligand | – | 1 µM | – | remaining binding | 95%
CS(=O)(=O)Nc1cccc(-c2csc3cnc(Nc4ccc(N5CCN(CCCCCOc6cccc7c6C(=O)N(C6CCC(=O)NC6=O)C7=O)CC5)cc4)nc23)c1 (stereo not drawn) | probe labelling, inhibitor, KiNativ chemoproteomics | MOLT-4 | 1 µM | – | inhibition | 84.9%
Cc1nc2c(F)cc(-c3nc(Nc4ccc(CNC(=O)CCCCCCC(=O)NO)cc4)ncc3F)cc2n1C(C)C | enzyme activity, inhibitor | – | 1 µM | – | inhibition | 28%

Some of these lines once more:
SMILES | assay | system | setting | scale | endpoint | value
O=C(Cc1ccc(OCc2ccccc2)cc1)NC1(C(=O)O)CCN(C(=O)c2ccc(-c3cccc(Cl)c3)cc2)CC1 | enzyme activity, inhibitor | – | 10 µM | – | activity vs control | 102%
